Results of several laboratories.
Parts stem from different laboratories: compare values within a part only. Substitutions count along the parent as printed.

Study 1 — method: RNA Bind-n-Seq; molecule type: RNA; matrix: in vitro; concentration: 20 nM; notes: 6-mer, flanks averaged, single round; added: 150 mM LiCl; relative to: input library; reading: higher = stronger binding
Target: TAR DNA-binding protein 43, full length, His tag (TARDBP, Homo sapiens, UniProt Q13148, residues 1-414)
Oligonucleotide	6-mer enrichment (R)
UCCAAG	0.841
AUUCUU	0.979
AGGCCC	1.02
AACCGU	0.827
UAUCAC	0.853
ACUUCG	0.807
ACCGCC	0.94
AGAACU	1.01

Study 2 — method: aptamer microarray, sandwich; molecule type: DNA with 2'F-ANA; matrix: in vitro; concentration: 200 nM; added: Cy3 exosite-II aptamer, 400 nM; reading: higher = stronger binding; oligonucleotide: GGTTGGTGTGGTTGG
Target: Prothrombin, mature alpha-thrombin (F2, Homo sapiens, UniProt P00734)
Notes: whole 15-mer aptamer, many near background
Modification	mean fluorescence intensity
2'F-ANA at 1 5 8 10 11 12 14	106 a.u.
2'F-ANA at 2 9 10 11 14	91.2 a.u.
2'F-ANA at 2 4 5 6 8 9 11 12 14 15	52.5 a.u.
2'F-ANA at 1 3 9 10 12	113 a.u.
2'F-ANA at 1 3 4 5 6 8 9 10 12 13 15	51.6 a.u.
2'F-ANA at 3 4 5 9 10 12 13 15	56 a.u.
2'F-ANA at 1 2 3 4 7 10 13 14	47.9 a.u.
2'F-ANA at 1 7 9 10 11 12 13 14 15	46.8 a.u.

Study 3 — target: CCNF, cyclin fold, Cln2 fusion (human); method: yeast growth competition, sequencing; matrix: yeast; notes: strong parent motif; relative to: not given; reading: higher = stronger binding
Parent: viral docking peptide; KGVKRKLFAEDSS; partner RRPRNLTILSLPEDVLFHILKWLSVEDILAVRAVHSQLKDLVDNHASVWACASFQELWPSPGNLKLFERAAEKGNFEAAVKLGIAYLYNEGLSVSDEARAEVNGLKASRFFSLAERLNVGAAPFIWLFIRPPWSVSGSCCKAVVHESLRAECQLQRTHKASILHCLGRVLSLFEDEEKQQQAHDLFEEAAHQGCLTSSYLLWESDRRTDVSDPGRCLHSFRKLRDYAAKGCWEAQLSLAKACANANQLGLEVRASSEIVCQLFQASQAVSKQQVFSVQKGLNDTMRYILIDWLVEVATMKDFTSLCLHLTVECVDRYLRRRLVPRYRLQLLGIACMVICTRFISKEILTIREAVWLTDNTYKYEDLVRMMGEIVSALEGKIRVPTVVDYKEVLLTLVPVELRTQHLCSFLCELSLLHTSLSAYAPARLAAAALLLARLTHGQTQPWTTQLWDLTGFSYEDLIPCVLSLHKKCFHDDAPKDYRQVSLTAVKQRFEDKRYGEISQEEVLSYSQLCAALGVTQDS
Change	normalised enrichment score
KGVKMKLFAEDSS [R5M]	0.633
KGVSRKLFAEDSS [K4S]	7.91
KGVKRKLFATDSS [E10T]	7.61
KGVKRKLFAEDRS [S12R]	8.03
KAVKRKLFAEDSS [G2A]	7.54
KNVKRKLFAEDSS [G2N]	8.08
KWVKRKLFAEDSS [G2W]	8.11
KGVKRKLFNEDSS [A9N]	7.08
KGVKRKLGAEDSS [F8G]	0.62
KGVKRKLFAESSS [D11S]	8.32
KGVKRKEFAEDSS [L7E]	0.497
KGVKNKLFAEDSS [R5N]	0.408
KGVKRKLNAEDSS [F8N]	0.481
KRVKRKLFAEDSS [G2R]	7.71
KGVKRKLFFEDSS [A9F]	8.74

Other studies, line by line — method: cross-linking MS; matrix: cell fractions
Substance	partner	setting	cross-linked residues
DDX21 (Homo sapiens, UniProt Q9NR30)	KIF15 (Homo sapiens, UniProt Q9NS87)	added: DMTMM	D14 to K1256
NUP43 (Homo sapiens, UniProt Q8NFH3)	SEH1L (Homo sapiens, UniProt Q96EE3)	added: DSSO	K161 to K96
MTA1 (Homo sapiens, UniProt Q13330)	RBBP7 (Homo sapiens, UniProt Q16576)	added: DMTMM	K532 to E351

A few entries again (study 1):
Oligonucleotide	6-mer enrichment (R)
AGGCCC	1.02
AACCGU	0.827
UAUCAC	0.853
ACUUCG	0.807
ACCGCC	0.94
